{"data": "Results of several laboratories", "note": "Each numbered part is a random draw from the data of one study; scales do not carry over between parts.", "UniProt P00519, sequence (whole entry, unmodified, looked up)": "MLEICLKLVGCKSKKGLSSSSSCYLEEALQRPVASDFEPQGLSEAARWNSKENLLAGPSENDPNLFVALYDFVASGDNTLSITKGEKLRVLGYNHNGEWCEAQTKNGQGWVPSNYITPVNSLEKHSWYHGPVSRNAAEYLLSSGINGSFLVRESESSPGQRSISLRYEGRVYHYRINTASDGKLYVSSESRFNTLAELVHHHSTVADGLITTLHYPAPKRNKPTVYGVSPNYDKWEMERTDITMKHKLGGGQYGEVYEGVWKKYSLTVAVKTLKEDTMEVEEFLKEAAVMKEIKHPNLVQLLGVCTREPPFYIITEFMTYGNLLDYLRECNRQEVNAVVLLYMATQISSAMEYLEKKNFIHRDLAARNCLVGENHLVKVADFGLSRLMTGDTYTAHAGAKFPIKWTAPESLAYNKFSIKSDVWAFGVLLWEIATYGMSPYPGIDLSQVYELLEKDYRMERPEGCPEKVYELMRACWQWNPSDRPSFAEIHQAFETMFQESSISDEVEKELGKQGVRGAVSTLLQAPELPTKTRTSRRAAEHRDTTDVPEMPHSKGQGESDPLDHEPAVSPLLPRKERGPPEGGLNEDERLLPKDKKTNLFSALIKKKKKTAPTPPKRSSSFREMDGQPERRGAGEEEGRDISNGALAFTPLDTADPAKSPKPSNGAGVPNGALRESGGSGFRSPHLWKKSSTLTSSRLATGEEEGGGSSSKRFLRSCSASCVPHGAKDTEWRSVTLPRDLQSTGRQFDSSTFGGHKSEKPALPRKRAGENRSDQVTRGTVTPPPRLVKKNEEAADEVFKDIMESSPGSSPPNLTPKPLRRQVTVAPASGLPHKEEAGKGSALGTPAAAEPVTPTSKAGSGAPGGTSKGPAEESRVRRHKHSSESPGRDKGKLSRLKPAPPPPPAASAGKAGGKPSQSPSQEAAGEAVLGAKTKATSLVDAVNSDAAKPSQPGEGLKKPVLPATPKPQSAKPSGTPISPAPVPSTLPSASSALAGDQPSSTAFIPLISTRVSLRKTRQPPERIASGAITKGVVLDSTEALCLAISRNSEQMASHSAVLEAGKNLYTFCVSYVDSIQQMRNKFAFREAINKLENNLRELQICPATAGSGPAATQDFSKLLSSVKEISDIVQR", "UniProt Q9NY57, sequence (whole entry, looked up)": "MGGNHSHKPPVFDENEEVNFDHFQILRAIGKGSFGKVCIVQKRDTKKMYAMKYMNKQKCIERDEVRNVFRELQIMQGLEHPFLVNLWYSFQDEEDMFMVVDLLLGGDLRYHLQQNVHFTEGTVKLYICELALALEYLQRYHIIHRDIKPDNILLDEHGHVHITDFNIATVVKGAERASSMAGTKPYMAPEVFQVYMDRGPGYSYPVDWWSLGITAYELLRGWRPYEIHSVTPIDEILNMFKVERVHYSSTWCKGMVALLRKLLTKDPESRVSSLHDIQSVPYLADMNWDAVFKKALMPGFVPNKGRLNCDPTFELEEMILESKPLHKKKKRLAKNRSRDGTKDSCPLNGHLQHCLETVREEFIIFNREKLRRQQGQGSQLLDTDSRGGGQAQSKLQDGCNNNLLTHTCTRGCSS", "UniProt P29376, sequence (whole entry, looked up)": "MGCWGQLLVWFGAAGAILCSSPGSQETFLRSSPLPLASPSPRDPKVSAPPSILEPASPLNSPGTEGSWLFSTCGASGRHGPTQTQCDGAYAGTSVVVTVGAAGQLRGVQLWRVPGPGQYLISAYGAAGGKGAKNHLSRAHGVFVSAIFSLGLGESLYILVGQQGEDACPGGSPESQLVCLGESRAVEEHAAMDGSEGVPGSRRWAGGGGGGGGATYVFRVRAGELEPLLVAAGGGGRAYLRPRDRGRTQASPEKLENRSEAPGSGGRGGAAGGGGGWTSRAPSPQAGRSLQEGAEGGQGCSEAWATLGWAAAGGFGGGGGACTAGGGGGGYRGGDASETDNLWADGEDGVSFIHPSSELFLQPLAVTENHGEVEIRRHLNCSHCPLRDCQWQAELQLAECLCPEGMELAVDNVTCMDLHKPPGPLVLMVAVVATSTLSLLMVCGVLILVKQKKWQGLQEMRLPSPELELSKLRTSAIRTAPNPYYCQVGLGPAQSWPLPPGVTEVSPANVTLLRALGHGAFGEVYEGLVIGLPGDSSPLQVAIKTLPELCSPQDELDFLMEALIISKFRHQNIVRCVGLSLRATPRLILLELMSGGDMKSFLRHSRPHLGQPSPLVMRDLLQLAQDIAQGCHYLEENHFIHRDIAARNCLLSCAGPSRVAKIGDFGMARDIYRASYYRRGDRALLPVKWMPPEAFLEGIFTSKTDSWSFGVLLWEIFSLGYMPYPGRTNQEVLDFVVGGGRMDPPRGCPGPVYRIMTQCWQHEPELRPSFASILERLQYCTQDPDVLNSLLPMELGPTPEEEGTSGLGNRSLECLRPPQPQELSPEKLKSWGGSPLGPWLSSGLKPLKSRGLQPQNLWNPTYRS"}
{"data": "Sample 1", "target": "cAMP-dependent protein kinase catalytic subunit PRKX (PRKX, Homo sapiens, UniProt P51817)", "observed": "enzyme activity", "mode": "inhibitor", "concentration": "0.5 µM", "relative to": "control", "Target sequence (P51817 1-358)": "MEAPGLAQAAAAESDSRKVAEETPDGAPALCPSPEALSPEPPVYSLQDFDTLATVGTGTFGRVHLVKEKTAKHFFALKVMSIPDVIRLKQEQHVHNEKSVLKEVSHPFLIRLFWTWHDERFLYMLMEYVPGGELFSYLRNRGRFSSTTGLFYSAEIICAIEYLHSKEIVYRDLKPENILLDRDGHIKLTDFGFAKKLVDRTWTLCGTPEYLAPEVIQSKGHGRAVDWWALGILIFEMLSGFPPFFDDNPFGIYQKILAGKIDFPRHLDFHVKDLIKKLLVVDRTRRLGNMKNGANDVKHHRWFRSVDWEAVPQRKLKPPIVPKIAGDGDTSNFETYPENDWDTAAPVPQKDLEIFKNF"}
{"SMILES": "CC(C)(C)c1nc2c3cc[nH]c(=O)c3c3cc(F)ccc3c2[nH]1", "remaining activity [%]": 79.2}
{"SMILES": "O=C(c1ccccc1)c1ccc(N2CCOCC2)cc1O", "remaining activity [%]": 109}
{"SMILES": "CC(C)n1cnc2c(Nc3cccc(Cl)c3)nc(NCCO)nc21", "remaining activity [%]": 96.4}
{"SMILES": "Clc1ccc(Nc2nnc(Cc3ccncc3)c3ccccc23)cc1", "remaining activity [%]": 152}
{"SMILES": "c1cc(-c2cnn3cc(-c4ccc(OCCN5CCCCC5)cc4)cnc23)ccn1", "remaining activity [%]": 58.2}
{"SMILES": "NC(=O)c1cccc(-c2cc(Nc3ccc(OC(F)(F)F)cc3)ncn2)c1", "remaining activity [%]": 105}
{"SMILES": "CCCCc1c(-c2ccc(O)cc2)[nH]c2nccnc12", "remaining activity [%]": 110}
{"SMILES": "O=C1NC(=O)/C(=C/c2ccc3c(c2)OC(F)(F)O3)S1", "remaining activity [%]": 101}
{"SMILES": "Nc1nc(Nc2ccc(S(N)(=O)=O)cc2)nn1C(=S)Nc1c(F)cccc1F", "remaining activity [%]": 76.3}
{"SMILES": "N#C/C(=C(/N)SC1C=CC=CC1)c1cccc(C(O)c2ccncc2)c1 (stereo not shown)", "remaining activity [%]": 102}
{"SMILES": "FC(F)(F)c1ccc(/C=C/c2nc(COc3ccc(CCCCn4ccnn4)cc3)co2)cc1", "remaining activity [%]": 95.3}
{"SMILES": "C[C@@H](N)[C@H]1CC[C@H](C(=O)Nc2ccncc2)CC1", "remaining activity [%]": 63.3}
{"SMILES": "CCN(CC)CCCCN1c2ccccc2Oc2ccc(Cl)cc21", "remaining activity [%]": 103}
{"SMILES": "COc1cc2c(Nc3ccc(Br)cc3F)ncnc2cc1OCC1CCN(C)CC1", "remaining activity [%]": 105}
{"SMILES": "CNc1cc2c(Nc3cccc(Br)c3)ncnc2cn1", "remaining activity [%]": 97.1}
{"SMILES": "N#CC(c1ccnc(NCCc2cccnc2)n1)c1nc2ccccc2s1 (stereo not shown)", "remaining activity [%]": 96.4}
{"SMILES": "CC(C)N(CCC(=O)c1ccc2ccccc2c1)Cc1ccccc1", "remaining activity [%]": 99.6}
{"SMILES": "O=Nc1c(-c2c(O)[nH]c3ccccc23)[nH]c2ccccc12", "remaining activity [%]": 88.8}
{"SMILES": "COc1cc2c(N3CCN(C(=O)Nc4ccc(OC(C)C)cc4)CC3)ncnc2cc1OCCCN1CCCCC1", "remaining activity [%]": 108}
{"SMILES": "NC(=O)c1ccc(-c2nc(-c3ccc4c(c3)OCCO4)c(-c3ccccn3)[nH]2)cc1", "remaining activity [%]": 99.5}
{"SMILES": "O=c1c(-c2ccc(F)cc2)c(-c2ccncc2)[nH]n1-c1ccc(Cl)cc1", "remaining activity [%]": 97}
{"SMILES": "O=C(O)/C=C/c1cc(Br)c(Br)c(Br)c1Br", "remaining activity [%]": 96}
{"SMILES": "O=C1c2ccccc2-c2nc3nnnn3nc21", "remaining activity [%]": 94.3}
{"data": "Sample 2", "Compound": "C[C@@]1(Cc2ccc(C#N)cc2)C(=O)N(c2cc(Cl)cc(Cl)c2)c2ncc(C(=O)NC3(c4nc(C5CCC5)no4)CC3)n21", "technique": "competition with immobilised ligand", "concentration": "1 µM"}
{"target": "CDK11A (Homo sapiens, UniProt Q9UQ88)", "test": "binding", "remaining binding [%]": 100}
{"target": "ABL2 (Homo sapiens, UniProt P42684)", "test": "cell-free assay", "remaining binding [%]": 78}
{"target": "CDK15 (Homo sapiens, UniProt Q96Q40)", "test": "cell-free assay", "remaining binding [%]": 97}
{"target": "PIK3C3 (Homo sapiens, UniProt Q8NEB9)", "test": "cell-free assay", "remaining binding [%]": 100}
{"target": "Cyclin-dependent kinase 4, with cyclin D3 (CDK4, Homo sapiens, UniProt P11802)", "test": "cell-free assay", "remaining binding [%]": 93}
{"target": "DCLK2 (Homo sapiens, UniProt Q8N568)", "test": "cell-free assay", "remaining binding [%]": 100}
{"target": "GAK (Homo sapiens, UniProt O14976)", "test": "cell-free assay", "remaining binding [%]": 100}
{"target": "VRK2 (Homo sapiens, UniProt Q86Y07)", "test": "cell-free assay", "remaining binding [%]": 100}
{"target": "FLT3 (Homo sapiens, UniProt P36888, D835Y)", "test": "cell-free assay", "remaining binding [%]": 100}
{"target": "LYN (Homo sapiens, UniProt P07948)", "test": "cell-free assay", "remaining binding [%]": 95}
{"target": "FLT3 (Homo sapiens, UniProt P36888, D835V)", "test": "cell-free assay", "remaining binding [%]": 100}
{"target": "MKNK1 (Homo sapiens, UniProt Q9BUB5)", "test": "cell-free assay", "remaining binding [%]": 100}
{"target": "LTK (Homo sapiens, UniProt P29376)", "test": "cell-free assay", "remaining binding [%]": 100}
{"target": "ALK (Homo sapiens, UniProt Q9UM73, C1156Y)", "test": "cell-free assay", "remaining binding [%]": 100}
{"target": "WEE2 (Homo sapiens, UniProt P0C1S8)", "test": "cell-free assay", "remaining binding [%]": 100}
{"target": "PAK1 (Homo sapiens, UniProt Q13153)", "test": "cell-free assay", "remaining binding [%]": 99}
{"target": "FLT1 (Homo sapiens, UniProt P17948)", "test": "cell-free assay", "remaining binding [%]": 99}
{"target": "Tyrosine-protein kinase ABL1, phosphorylated (ABL1, Homo sapiens, UniProt P00519)", "test": "cell-free assay", "remaining binding [%]": 100}
{"target": "IKBKE (Homo sapiens, UniProt Q14164)", "test": "cell-free assay", "remaining binding [%]": 80}
{"target": "CDK14 (Homo sapiens, UniProt O94921)", "test": "cell-free assay", "remaining binding [%]": 100}
{"target": "IRAK3 (Homo sapiens, UniProt Q9Y616)", "test": "cell-free assay", "remaining binding [%]": 100}
{"data": "Sample 3", "SMILES": "Cc1ccc(NC(=O)c2ccnc(C(F)(F)F)c2)cc1-c1cc(OCCO)nc(N2CCOCC2)c1", "concentration": "1 µM"}
{"target": "RIPK4 (Homo sapiens, UniProt P57078)", "test": "competitive binding panel", "scale": "relative to: vehicle", "remaining binding [%]": 91}
{"target": "PIP5K1C (Homo sapiens, UniProt O60331)", "test": "competitive binding panel", "scale": "relative to: vehicle", "remaining binding [%]": 98}
{"target": "CSNK1D (Homo sapiens, UniProt P48730)", "test": "competitive binding panel", "scale": "relative to: vehicle", "remaining binding [%]": 99}
{"target": "ROCK2 (Homo sapiens, UniProt O75116)", "test": "competitive binding panel", "scale": "relative to: vehicle", "remaining binding [%]": 96}
{"target": "STK25 (Homo sapiens, UniProt O00506)", "test": "competitive binding panel, item: YSK1", "scale": "relative to: vehicle", "remaining binding [%]": 100}
{"target": "MARK2 (Homo sapiens, UniProt Q7KZI7)", "test": "competitive binding panel", "scale": "relative to: vehicle", "remaining binding [%]": 99}
{"target": "JAK1 (Homo sapiens, UniProt P23458)", "test": "competitive binding panel", "setting": "JH1 catalytic domain", "scale": "relative to: vehicle", "remaining binding [%]": 93}
{"target": "PTK2 (Homo sapiens, UniProt Q05397)", "test": "competitive binding", "setting": "FAK", "remaining binding [%]": 100}
{"target": "KIT (Homo sapiens, UniProt P10721, V559D/V654A)", "test": "competitive binding panel", "scale": "relative to: vehicle", "remaining binding [%]": 91}
{"target": "CLK2 (Homo sapiens, UniProt P49760)", "test": "competitive binding panel", "scale": "relative to: vehicle", "remaining binding [%]": 100}
{"target": "TEK (Homo sapiens, UniProt Q02763)", "test": "competitive binding", "setting": "TIE2", "remaining binding [%]": 86}
{"target": "CSNK2A1 (Homo sapiens, UniProt P68400)", "test": "competitive binding panel", "scale": "relative to: vehicle", "remaining binding [%]": 85}
{"target": "CSF1R (Homo sapiens, UniProt P07333)", "test": "competitive binding panel", "scale": "relative to: vehicle", "remaining binding [%]": 93}
{"target": "STK32B (Homo sapiens, UniProt Q9NY57)", "test": "competitive binding panel, item: YANK2", "scale": "relative to: vehicle", "remaining binding [%]": 97}
{"target": "SIK2 (Homo sapiens, UniProt Q9H0K1)", "test": "competitive binding panel", "scale": "relative to: vehicle", "remaining binding [%]": 97}
{"target": "TIE1 (Homo sapiens, UniProt P35590)", "test": "competitive binding panel", "scale": "relative to: vehicle", "remaining binding [%]": 33}
{"target": "ABL1 (Homo sapiens, UniProt P00519, E255K)", "test": "competitive binding panel", "scale": "relative to: vehicle", "remaining binding [%]": 93}
{"data": "Sample 4", "target": "DNA polymerase theta, ATPase domain (POLQ, Homo sapiens, UniProt O75417)", "observed": "enzyme activity", "mode": "inhibitor", "concentration": "77 µM", "relative to": "untreated", "UniProt O75417, sequence (whole entry, unmodified, looked up)": "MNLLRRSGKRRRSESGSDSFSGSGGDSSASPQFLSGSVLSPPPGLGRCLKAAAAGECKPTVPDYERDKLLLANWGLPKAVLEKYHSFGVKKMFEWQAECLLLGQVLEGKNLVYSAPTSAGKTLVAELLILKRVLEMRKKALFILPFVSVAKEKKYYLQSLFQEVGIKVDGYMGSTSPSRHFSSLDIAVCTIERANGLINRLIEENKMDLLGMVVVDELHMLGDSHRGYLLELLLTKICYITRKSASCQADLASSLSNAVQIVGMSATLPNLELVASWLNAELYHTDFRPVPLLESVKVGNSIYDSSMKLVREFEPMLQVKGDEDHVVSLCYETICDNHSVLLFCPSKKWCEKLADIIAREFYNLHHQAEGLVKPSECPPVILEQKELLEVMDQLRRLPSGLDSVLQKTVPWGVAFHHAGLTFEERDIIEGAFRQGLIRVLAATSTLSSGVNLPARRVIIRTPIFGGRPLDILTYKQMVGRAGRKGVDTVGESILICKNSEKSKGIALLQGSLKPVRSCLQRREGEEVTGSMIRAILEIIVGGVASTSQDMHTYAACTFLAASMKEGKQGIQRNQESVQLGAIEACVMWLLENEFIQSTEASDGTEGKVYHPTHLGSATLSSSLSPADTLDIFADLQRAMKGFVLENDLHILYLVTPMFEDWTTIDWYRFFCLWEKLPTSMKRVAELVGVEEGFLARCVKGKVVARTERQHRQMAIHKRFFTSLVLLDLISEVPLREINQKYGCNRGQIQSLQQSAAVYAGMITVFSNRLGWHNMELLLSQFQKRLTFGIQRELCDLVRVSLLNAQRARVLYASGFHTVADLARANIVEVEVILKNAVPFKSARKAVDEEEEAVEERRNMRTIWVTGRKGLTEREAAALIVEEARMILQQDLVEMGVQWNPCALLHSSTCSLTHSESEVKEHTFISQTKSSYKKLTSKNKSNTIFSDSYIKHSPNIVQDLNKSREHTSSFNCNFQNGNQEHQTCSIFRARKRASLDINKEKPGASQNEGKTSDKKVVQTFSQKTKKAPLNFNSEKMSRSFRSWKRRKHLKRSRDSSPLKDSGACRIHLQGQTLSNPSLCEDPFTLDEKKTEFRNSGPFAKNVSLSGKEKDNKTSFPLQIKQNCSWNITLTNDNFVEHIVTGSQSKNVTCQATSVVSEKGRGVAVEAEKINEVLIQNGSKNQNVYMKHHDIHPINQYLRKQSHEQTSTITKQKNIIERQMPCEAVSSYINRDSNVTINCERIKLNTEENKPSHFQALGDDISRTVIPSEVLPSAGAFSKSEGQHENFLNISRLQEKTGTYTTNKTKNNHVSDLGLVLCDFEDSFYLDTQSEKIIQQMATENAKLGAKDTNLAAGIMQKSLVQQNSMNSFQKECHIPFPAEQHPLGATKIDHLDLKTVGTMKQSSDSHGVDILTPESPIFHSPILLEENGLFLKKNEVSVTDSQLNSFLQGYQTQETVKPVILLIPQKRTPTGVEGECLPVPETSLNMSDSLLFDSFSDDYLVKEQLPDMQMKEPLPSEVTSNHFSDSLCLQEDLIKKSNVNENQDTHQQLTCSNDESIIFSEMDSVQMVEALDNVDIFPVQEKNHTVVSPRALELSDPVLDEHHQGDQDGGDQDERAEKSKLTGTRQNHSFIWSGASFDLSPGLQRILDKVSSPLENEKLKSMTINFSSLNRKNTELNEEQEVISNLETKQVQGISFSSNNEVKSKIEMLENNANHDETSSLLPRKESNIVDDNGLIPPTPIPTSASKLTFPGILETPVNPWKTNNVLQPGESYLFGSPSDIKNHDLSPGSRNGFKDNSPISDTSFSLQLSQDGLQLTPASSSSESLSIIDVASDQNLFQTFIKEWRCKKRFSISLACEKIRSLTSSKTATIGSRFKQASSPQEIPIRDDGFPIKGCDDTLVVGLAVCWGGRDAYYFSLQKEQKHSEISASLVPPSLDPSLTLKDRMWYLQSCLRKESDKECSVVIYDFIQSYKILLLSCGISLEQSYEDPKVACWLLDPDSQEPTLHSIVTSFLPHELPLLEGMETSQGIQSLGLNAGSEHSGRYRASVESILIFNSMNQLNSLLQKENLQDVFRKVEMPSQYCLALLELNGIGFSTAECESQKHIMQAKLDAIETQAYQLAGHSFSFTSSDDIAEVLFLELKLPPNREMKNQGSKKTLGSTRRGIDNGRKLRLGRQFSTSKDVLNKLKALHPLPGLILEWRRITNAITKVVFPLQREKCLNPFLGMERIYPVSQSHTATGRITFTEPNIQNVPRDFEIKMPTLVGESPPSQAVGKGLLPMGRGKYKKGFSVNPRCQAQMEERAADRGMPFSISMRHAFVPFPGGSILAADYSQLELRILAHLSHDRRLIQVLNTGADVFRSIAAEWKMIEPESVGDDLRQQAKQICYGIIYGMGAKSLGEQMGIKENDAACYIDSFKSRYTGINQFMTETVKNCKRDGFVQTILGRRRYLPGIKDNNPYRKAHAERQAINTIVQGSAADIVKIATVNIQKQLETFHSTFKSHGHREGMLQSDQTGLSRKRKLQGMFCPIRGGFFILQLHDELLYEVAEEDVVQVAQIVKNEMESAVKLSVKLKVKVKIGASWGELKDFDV"}
{"SMILES": "CCc1cccc(CC)c1NC(=O)CN(CC(=O)O)CC(=O)O", "remaining activity [%]": 100}
{"SMILES": "O=C(Nc1ccccc1)OCC(CN1CCCCC1)OC(=O)Nc1ccccc1 (stereo not shown)", "remaining activity [%]": 102}
{"SMILES": "OC1(c2ccc(Cl)c(C(F)(F)F)c2)CCN(CCCC(c2ccc(F)cc2)c2ccc(F)cc2)CC1", "remaining activity [%]": 101}
{"SMILES": "Oc1c(I)cc(Cl)c2cccnc12", "remaining activity [%]": 110}
{"SMILES": "CC(=O)N(CC(O)CN(C(C)=O)c1c(I)c(C(=O)NC[C@@H](O)CO)c(I)c(C(=O)NC[C@@H](O)CO)c1I)c1c(I)c(C(=O)NC[C@@H](O)CO)c(I)c(C(=O)NC[C@@H](O)CO)c1I", "remaining activity [%]": 102}
{"SMILES": "COc1ccc(-c2ccc3ncc4c(c3c2)n(-c2ccc(N3CCNCC3)c(C(F)(F)F)c2)c(=O)n4C)cn1", "remaining activity [%]": 83}
{"SMILES": "COc1ccc(CCn2nnnc2C2(c3ccc(C)cc3)CC2)cc1", "remaining activity [%]": 114}
{"SMILES": "Cc1cc(NC(=O)Nc2ccc(N(C)C)cc2)c2cc(F)cc(F)c2n1", "remaining activity [%]": 77.8}
{"SMILES": "Cc1ccc(Nc2c(F)cccc2Cl)c(CC(=O)O)c1", "remaining activity [%]": 93.8}
{"SMILES": "CC(=O)NC1[C@@H](O)OC(CO)[C@@H](O)[C@H]1O[C@H](C)C(=O)O (stereo in doubt)", "remaining activity [%]": 98.4}
{"SMILES": "CN[C@@H]1[C@H](O[C@H]2[C@H](O[C@H]3[C@H](O)[C@@H](O)[C@H](N=C(N)N)[C@@H](O)[C@@H]3N=C(N)N)O[C@@H](C)[C@]2(O)C=O)O[C@@H](CO)[C@H](O)[C@H]1O", "remaining activity [%]": 88.8}
{"SMILES": "COc1ccc(Br)cc1S(=O)(=O)NC(=O)/C=C/c1ccccc1Cc1ccc2ccccc2c1", "remaining activity [%]": 86.9}
{"SMILES": "COc1ccccc1CNCCCCCCNCCCCCCCCNCCCCCCNCc1ccccc1OC", "remaining activity [%]": 109}
{"SMILES": "NCCCCC(=O)O", "remaining activity [%]": 90.7}
{"SMILES": "C=CCc1ccc(O)c(-c2cc(CC=C)ccc2O)c1", "remaining activity [%]": 92}
{"SMILES": "CCCCC(F)(F)[C@@]1(O)CC[C@H]2[C@@H](CC(=O)[C@@H]2CCCCCCC(=O)O)O1", "remaining activity [%]": 102}
{"SMILES": "N=C(N)c1ccc(N)cc1", "remaining activity [%]": 99.9}
{"SMILES": "CC(C)CC(N)=O", "remaining activity [%]": 91.5}
{"note": "Repeated from above (sample 1):"}
{"SMILES": "CCCCc1c(-c2ccc(O)cc2)[nH]c2nccnc12", "remaining activity [%]": 110}
{"SMILES": "O=C1NC(=O)/C(=C/c2ccc3c(c2)OC(F)(F)O3)S1", "remaining activity [%]": 101}
{"SMILES": "Nc1nc(Nc2ccc(S(N)(=O)=O)cc2)nn1C(=S)Nc1c(F)cccc1F", "remaining activity [%]": 76.3}
{"SMILES": "N#C/C(=C(/N)SC1C=CC=CC1)c1cccc(C(O)c2ccncc2)c1 (stereo not shown)", "remaining activity [%]": 102}
